Measurements pooled from the literature.
Several values in a cell are separate wells, animals, samples, runs or records. ± gives the spread as reported.
Cell line: SK-MEL-28

| SMILES | assay | conditions | how to read | endpoint | result |
| --- | --- | --- | --- | --- | --- |
| CC(Cc1ccc(Cl)cc1)=C(c1ccc(Cl)cc1)c1ccc(OCCN(C)C)cc1 | cell growth or viability, SRB |  |  | GI50 | 4.85 µM |
| FC(F)(F)c1ccnc(-c2cc(C(F)(F)F)ccn2)c1.FC(F)(F)c1ccnc(-c2cc(C(F)(F)F)ccn2)c1.[Cl-].[Cl-].[Ru+2].c1csc(-c2ccc(-c3ccc(-c4nc5c6cccnc6c6ncccc6c5[nH]4)s3)s2)c1 | cell viability | normoxia, together with: green light 523 nm, 100 J/cm2 | relative to: dark EC50 over light EC50 | phototherapeutic index | 731 |
| CCCCCCCCC1(CCCCCCCC)c2cc(C#Cc3cc4[n+]5c(c3)-c3cccc[n+]3[Ir-3]536([n+]5ccccc5-4)[n+]4ccccc4-c4cc(-c5ccccc5)cc([n+]43)-c3cccc[n+]36)ccc2-c2ccc(C#Cc3cc4[n+]5c(c3)-c3cccc[n+]3[Ir-3]536([n+]5ccccc5-4)[n+]4ccccc4-c4cc(-c5ccccc5)cc([n+]43)-c3cccc[n+]36)cc21.F[P-](F)(F)(F)(F)F.F[P-](F)(F)(F)(F)F.F[P-](F)(F)(F)(F)F.F[P-](F)(F)(F)(F)F.F[P-](F)(F)(F)(F)F.F[P-](F)(F)(F)(F)F |  | red light 100 J/cm2 | relative to: dark EC50 over red-light EC50 | phototherapeutic index | 1 |
| N#Cc1c(-c2cccs2)cc(-c2cccc3ccccc23)n2c(Cc3ccccc3)nnc12 | cell growth or viability, MTT | 72 h |  | IC50 | 1.37 µM |
| FC(F)(F)c1ccnc(-c2cc(C(F)(F)F)ccn2)c1.FC(F)(F)c1ccnc(-c2cc(C(F)(F)F)ccn2)c1.[Cl-].[Cl-].[Ru+2].c1csc(-c2ccc(-c3ccc(-c4ccc(-c5nc6c7cccnc7c7ncccc7c6[nH]5)s4)s3)s2)c1 | cell viability | hypoxia 1% O2, together with: green light | relative to: dark EC50 over light EC50 | mean phototherapeutic index | 210 |
| CCCCCCCCC1(CCCCCCCC)c2cc(-c3cc4[n+]5c(c3)-c3cccc[n+]3[Ir-3]536([n+]5ccccc5-c5cc(-c7ccccc7)cc([n+]53)-c3cccc[n+]36)[n+]3ccccc3-4)ccc2-c2ccc(-c3cc4[n+]5c(c3)-c3cccc[n+]3[Ir-3]536([n+]5ccccc5-c5cc(-c7ccccc7)cc([n+]53)-c3cccc[n+]36)[n+]3ccccc3-4)cc21.F[P-](F)(F)(F)(F)F.F[P-](F)(F)(F)(F)F.F[P-](F)(F)(F)(F)F.F[P-](F)(F)(F)(F)F.F[P-](F)(F)(F)(F)F.F[P-](F)(F)(F)(F)F | cell viability, resazurin | 16 h before light, red light 100 J/cm2 |  | EC50 | 59.7 ± 0.4 µM |
| CC(=O)OC[C@H]1O[C@@H](Sc2sc(C(=O)c3ccc(C)cc3)c(N)c2-c2nc3ccccc3s2)[C@H](OC(C)=O)[C@@H](OC(C)=O)[C@@H]1OC(C)=O | SRB | 10 µM, 48 h | relative to: untreated | growth | 76.4% |
| CC/C=C\C/C=C\C/C=C\C/C=C\C/C=C\C/C=C\CCC(=O)Nc1ccn(C2OC(CO)C(O)C2(F)F)c(=O)n1 (stereo not shown) | cell growth or viability, SRB |  |  | GI50 | 10.1 µM |
| CCCCCCCCC1(CCCCCCCC)c2cc(-c3cc4[n+]5c(c3)-c3cccc[n+]3[Ir-3]536([c]5ccccc5-c5cc(-c7ccccc7)cc([n+]53)-c3cccc[c]36)[n+]3ccccc3-4)ccc2-c2ccc(-c3cc4[n+]5c(c3)-c3cccc[n+]3[Ir-3]536([c]5ccccc5-c5cc(-c7ccccc7)cc([n+]53)-c3cccc[c]36)[n+]3ccccc3-4)cc21.F[P-](F)(F)(F)(F)F.F[P-](F)(F)(F)(F)F |  | red light 100 J/cm2 | relative to: dark EC50 over red-light EC50 | phototherapeutic index | 0.82 |
| N#Cc1c(-c2ccc(Cl)cc2)cc(-c2cccc3ccccc23)nc1NNC(=O)Cc1ccccc1 | cell growth or viability, MTT | 72 h |  | IC50 | 0.255 µM |
| COc1ccc(C2=Nn3c(NN=C4C(=O)N(C)c5ccc(Br)cc54)nnc3SC2)cc1 | cell growth or viability, SRB | 10 µM |  | inhibition | 15% |
| CC(=O)OC[C@H]1O[C@@H](Sc2sc(C(=O)c3ccc(Br)cc3)c(N)c2-c2nc3ccccc3s2)[C@H](OC(C)=O)[C@@H](OC(C)=O)[C@H]1OC(C)=O | SRB | 10 µM, 48 h | relative to: untreated | growth | 104% |
| FC(F)(F)c1ccnc(-c2cc(C(F)(F)F)ccn2)c1.FC(F)(F)c1ccnc(-c2cc(C(F)(F)F)ccn2)c1.[Cl-].[Cl-].[Ru+2].c1csc(-c2nc3c4cccnc4c4ncccc4c3[nH]2)c1 | cell viability | normoxia, together with: green light 523 nm, 100 J/cm2 |  | EC50 | 103 µM |
| CC(C)(C)c1nc(-c2cccc(NS(=O)(=O)c3c(F)cccc3F)c2F)c(-c2ccnc(N)n2)s1.Cc1[nH]c2ccccc2c1CCNCc1ccc(/C=C/C(=O)NO)cc1 | flow cytometry | concentration not given, 48 h |  | sub-G1 cells | > 80% and 88.5% |
| COc1ccc(C2=Nn3c(NN=C4C(=O)N(Cc5ccccc5)c5ccc(Cl)cc54)nnc3SC2)cc1 | cell growth or viability, SRB | 10 µM |  | inhibition | 12% |
| FC(F)(F)c1ccnc(-c2cc(C(F)(F)F)ccn2)c1.FC(F)(F)c1ccnc(-c2cc(C(F)(F)F)ccn2)c1.[Cl-].[Cl-].[Ru+2].c1cnc2c(c1)c1nc[nH]c1c1cccnc12 | cell growth or viability, resazurin | dark |  | EC50 | > 300 µM |

Excerpt of the above:
| SMILES | assay | conditions | how to read | endpoint | result |
| --- | --- | --- | --- | --- | --- |
| FC(F)(F)c1ccnc(-c2cc(C(F)(F)F)ccn2)c1.FC(F)(F)c1ccnc(-c2cc(C(F)(F)F)ccn2)c1.[Cl-].[Cl-].[Ru+2].c1cnc2c(c1)c1nc[nH]c1c1cccnc12 | cell growth or viability, resazurin | dark |  | EC50 | > 300 µM |
| COc1ccc(C2=Nn3c(NN=C4C(=O)N(Cc5ccccc5)c5ccc(Cl)cc54)nnc3SC2)cc1 | cell growth or viability, SRB | 10 µM |  | inhibition | 12% |
